Measured values collected from several papers.
± marks the error that the study gave. In brackets after ≈: the same amount, converted by molar mass.
rep main protease: Replicase polyprotein 1ab, main protease (rep, Severe acute respiratory syndrome coronavirus 2, UniProt P0DTD1)
OPRD1: Delta-type opioid receptor (OPRD1, Homo sapiens, UniProt P41143)
UniProt P41143, sequence (whole entry, looked up): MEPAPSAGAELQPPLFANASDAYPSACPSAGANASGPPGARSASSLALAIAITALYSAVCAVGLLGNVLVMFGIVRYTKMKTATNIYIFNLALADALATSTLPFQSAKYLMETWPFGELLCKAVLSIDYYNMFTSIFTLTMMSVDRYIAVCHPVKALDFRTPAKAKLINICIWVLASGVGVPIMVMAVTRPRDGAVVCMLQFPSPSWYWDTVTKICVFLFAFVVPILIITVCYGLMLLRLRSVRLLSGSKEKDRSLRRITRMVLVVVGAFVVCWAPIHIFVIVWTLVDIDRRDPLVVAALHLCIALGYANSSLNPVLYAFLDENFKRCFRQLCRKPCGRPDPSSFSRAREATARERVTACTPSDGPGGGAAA
UniProt P35372, sequence (whole entry, looked up): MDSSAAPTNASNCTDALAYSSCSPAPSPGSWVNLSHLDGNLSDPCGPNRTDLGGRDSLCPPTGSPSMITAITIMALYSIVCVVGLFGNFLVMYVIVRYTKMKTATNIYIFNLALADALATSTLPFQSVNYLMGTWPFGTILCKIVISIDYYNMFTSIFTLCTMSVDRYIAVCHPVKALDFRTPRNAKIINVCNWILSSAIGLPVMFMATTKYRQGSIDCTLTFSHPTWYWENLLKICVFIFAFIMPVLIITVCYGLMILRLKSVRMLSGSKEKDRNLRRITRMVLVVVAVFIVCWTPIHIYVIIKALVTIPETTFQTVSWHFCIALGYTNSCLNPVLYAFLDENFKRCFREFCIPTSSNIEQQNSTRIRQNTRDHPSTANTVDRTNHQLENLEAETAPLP

Structure (SMILES)	target or system	assay	system	setting	endpoint	value
CCCCCCCCCCCCCc1cc(O)cc(O)c1	rep main protease	enzyme activity, inhibitor	–	with preincubation	IC50	> 100 µM
CC(=O)N[C@@H](Cc1ccc(O)cc1)C(=O)N[C@@H](CCCNC(=N)N)C(=O)N[C@@H](Cc1ccccc1)C(=O)N[C@H]1CCC[C@@H]1C(=O)N[C@@H](CCCNC(=N)N)C(=O)N[C@@H](CC(N)=O)C(=O)N[C@H]1CCC[C@@H]1C(=O)N[C@H](C(=O)N[C@@H](Cc1ccccc1)C(=O)N[C@H]1CCC[C@@H]1C(=O)N[C@@H](Cc1ccccc1)C(=O)N[C@@H](Cc1ccc(O)cc1)C(=O)N[C@H]1CCC[C@@H]1C(=O)N[C@H](C(=O)N[C@@H](CC(=O)O)C(N)=O)[C@@H](C)O)C(C)C	rep main protease	enzyme activity, inhibitor	–	–	IC50	0.62 µM
O=C1CC(c2ccccc2)Oc2cc(O[C@@H]3O[C@H](CO)[C@@H](O)[C@H](O)[C@H]3O)ccc21 (stereo partly drawn)	Replicase polyprotein 1ab, nsp13 helicase (rep, Severe acute respiratory syndrome coronavirus 2, UniProt P0DTD1)	helicase unwinding activity, inhibitor	–	–	IC50	70.6 ± 3.2 µM
CN(C)CCCCNC(=O)[C@H](Cc1ccc(F)cc1)NC(=O)[C@@H](Cc1ccc(Cl)cc1Cl)NC(=O)[C@H](N)Cc1ccccc1C#N	rep main protease	enzyme activity, inhibitor, fluorescence	–	–	IC50	> 10 µM
Cc1ccc(OCCN(C)C)cc1C(=O)N[C@H](C)c1cc(-c2cnn(CF)c2)cc(-c2ccn(C)n2)c1	Replicase polyprotein 1ab, papain-like protease (rep, Severe acute respiratory syndrome coronavirus 2, UniProt P0DTD1)	enzyme activity, inhibitor, FRET	–	–	IC50	0.0867 µM
CC(C)C[C@H](NC(=O)c1cc2c(F)ccc(F)c2[nH]1)C(=O)N[C@@H](C[C@@H]1CCNC1=O)C(=O)c1nc2c(F)cccc2s1	rep main protease	enzyme activity, inhibitor	–	–	IC50	0.05 µM
CN(C)CCCNC(=O)C[C@H](Cc1ccc(F)cc1)NC(=O)[C@@H](Cc1ccc(Cl)cc1Cl)NC(=O)[C@H](N)Cc1ccccc1C#N	rep main protease	enzyme activity, inhibitor, fluorescence	–	–	IC50	0.02 µM
CC(=O)NS(=O)(=O)c1ccc(C2=NN(c3ccc(C#N)c(Cl)c3)C(C)C2)cc1 (stereo not drawn)	Replicase polyprotein 1ab, methyltransferase (rep, Severe acute respiratory syndrome coronavirus 2, UniProt P0DTD1)	enzyme activity, inhibitor	–	–	IC50	2 µM
COc1ccc2c(c1)C(=O)C(=O)N2Cc1cn(CC(=O)Nc2ccc(S(N)(=O)=O)cc2)nn1	rep main protease	enzyme activity, inhibitor	–	–	IC50	0.939 µM
CC(C)C[C@H](NC(=O)[C@H](CO)NC(=O)[C@H](CCCCN)NC(=O)[C@H](CC(C)C)NC(=O)[C@H](C)NC(=O)[C@H](CCCCN)NC(=O)[C@H](CCC(=O)O)NC(=O)[C@H](C)NC(=O)[C@H](CC(C)C)NC(=O)[C@H](CC(N)=O)NC(=O)[C@@H]1CCCN1C(=O)[C@H](CC(C)C)NC(=O)[C@H](Cc1ccccc1)NC(=O)CNC(=O)[C@H](NC(=O)[C@@H](N)Cc1ccc(O)cc1)[C@H](C)O)C(N)=O	OPRD1	ligand displacement, radioligand	–	pH 7.5, cell membranes	Ki	0.016 µM
O=C(Cn1nnc2ccccc21)Nc1ccccc1-c1cccs1	rep main protease	enzyme activity, inhibitor	–	–	IC50	> 100 µM
CC(C)C[C@H](NC(=O)[C@H](CO[C@@H]1O[C@H](CO)[C@@H](O)[C@H](O)[C@H]1O)NC(=O)[C@H](CCCCN)NC(=O)[C@H](CC(C)C)NC(=O)C(C)(C)NC(=O)[C@H](CCCCN)NC(=O)[C@H](CCC(=O)O)NC(=O)[C@H](C)NC(=O)[C@H](CC(C)C)NC(=O)[C@H](CC(N)=O)NC(=O)[C@@H]1CCCN1C(=O)[C@H](CC(C)C)NC(=O)[C@H](Cc1ccccc1)NC(=O)CNC(=O)[C@H](NC(=O)[C@@H](N)Cc1ccc(O)cc1)[C@H](C)O)C(N)=O	OPRD1	ligand displacement, radioligand	–	pH 7.5, cell membranes	Ki	0.0036 µM
Nc1ncnc2c1ncn2[C@@H]1O[C@H](CSCc2cc(C(=O)O)cc(-c3cccnc3)c2)[C@@H](O)[C@H]1O	Replicase polyprotein 1ab, nsp16 with nsp10 (rep, Severe acute respiratory syndrome coronavirus 2, UniProt P0DTD1)	methyltransferase activity, inhibitor	–	30 min, 30 °C, together with: SAM 10 µM	IC50	0.0086 ± 0.0004 µM
CCCCc1ccc(NC(=S)N/N=C/c2ccc(O)cc2)cc1	rep main protease	enzyme activity, inhibitor, FRET	–	–	IC50	34.2 µM
CC[C@@H](C)[C@@H](NC(=O)[C@@H](CCCCN)NC(=O)[C@@H](CCCCN)NC(=O)[C@@H](CC(C)C)NC(=O)[C@@H](Cc1c[nH]c2ccccc12)NC(=O)CN)C(=O)NCC(=O)N[C@H](CCCCN)C(=O)N[C@H](CCCCN)C(=O)N[C@@H](C(=O)N[C@H](CCC(=O)O)C(=O)N[C@H](CCCNC(=N)N)C(=O)N[C@@H](C(=O)NCC(=O)N[C@H](CCC(N)=O)C(=O)N[C@H](Cc1c[nH]cn1)C(=O)N[C@@H](C(=O)N[C@H](CCCNC(=N)N)C(=O)N[C@H](CC(=O)O)C(=O)N[C@H](C)C(=O)N[C@@H](C(=O)N[C@@H](C(=O)N[C@H](CCC(N)=O)C(=O)N[C@@H](C(=O)N[C@@H](C(=O)NCC(=O)N[C@@H](C(=O)N[C@H](C)C(=O)N[C@H](CCC(N)=O)C(=O)N[C@H](CCC(N)=O)C(=O)N[C@H](C)C(=O)N[C@H](C)C(=O)N[C@H](CC(N)=O)C(=O)N[C@@H](C(=O)N[C@H](C)C(=O)N[C@H](C)C(=O)N[C@@H](C(=O)N[C@H](CC(C)C)C(=O)N[C@H](CCCCN)C(N)=O)[C@H](C)O)C(C)C)C(C)C)[C@H](C)CC)[C@H](C)O)[C@H](C)CC)[C@H](C)O)[C@H](C)O)C(C)C)[C@H](C)CC	Escherichia coli	broth microdilution	ATCC 25922, CAMHB	–	MIC	1020 mg/L (≈ 244 µM)
CCCCCCCCCCCCCCCC(=O)N[C@@H](CCC(=O)NCCOCCOCCC(=O)NCCOCCOCCC(=O)NCCCC[C@H](NC(=O)[C@H](CC(=O)O)NC(=O)[C@H](CC(C)C)NC(=O)[C@H](Cc1ccc(O)cc1)NC(=O)[C@H](CCCCN)NC(=O)[C@H](CO)NC(=O)[C@H](Cc1ccc(O)cc1)NC(=O)[C@H](CC(=O)O)NC(=O)[C@H](CO)NC(=O)[C@@H](NC(=O)[C@H](Cc1ccccc1)NC(=O)[C@@H](NC(=O)CNC(=O)[C@H](CCC(N)=O)NC(=O)[C@@H](CO)NC(=O)[C@@H](N)Cc1c[nH]cn1)[C@@H](C)O)[C@@H](C)O)C(=O)N[C@@H](CCCNC(=N)N)C(=O)N[C@@H](CCCNC(=N)N)C(=O)N[C@@H](C)C(=O)N[C@@H](CCC(N)=O)C(=O)N[C@@H](CC(=O)O)C(=O)N[C@@H](Cc1ccccc1)C(=O)N[C@H](C(=O)N[C@@H](CCC(N)=O)C(=O)N[C@@H](Cc1c[nH]c2ccccc12)C(=O)N[C@@H](CC(C)C)C(=O)N[C@@H](CC(C)C)C(=O)N[C@@H](CC(N)=O)C(=O)N[C@H](C(=O)NCC(=O)NCC(=O)N1CCC[C@H]1C(=O)N[C@@H](CO)C(=O)N[C@@H](CO)C(=O)NCC(=O)N[C@@H](C)C(=O)N1CCC[C@H]1C(=O)N1CCC[C@H]1C(=O)N1CCC[C@H]1C(=O)N[C@@H](CO)C(N)=O)[C@@H](C)O)C(C)C)C(=O)O	–	measured: AST	Sprague-Dawley rat, female	subcutaneous, 500 µg/kg once daily, 14 days	serum enzyme activity	104 ± 36 U/L
Cc1cc(O)cc(C)c1C[C@H](N)C(=O)NCC(=O)NCC(=O)N[C@@H](Cc1ccccc1)C(=O)N[C@H](C(=O)NCC(=O)N[C@@H](C)C(=O)N[C@@H](CCCNC(=N)N)C(=O)N[C@@H](CCCCN)C(=O)N[C@@H](CO)C(=O)N[C@@H](C)C(=O)N[C@@H](CCCNC(=N)N)C(=O)N[C@@H](CCCCN)C(N)=O)[C@@H](C)O	OPRM1 (Homo sapiens, UniProt P35372)	G-protein interaction, agonist, BRET, measured: Gβ1	SH-SY5Y cell membranes	15 min, room temperature	EC50	0.00158 µM
CCOC(=O)CC[C@@H](C(=O)OCC)n1[se]c2ccccc2c1=O	rep main protease	enzyme activity, inhibitor	–	–	IC50	0.102 µM
[N-]=[N+]=N[C@]1(COP(=O)(O)OP(=O)(O)OP(=O)(O)O)O[C@@H](n2ccc(N)nc2=O)[C@@H](F)[C@@H]1O	Replicase polyprotein 1ab, polymerase (rep, Severe acute respiratory syndrome coronavirus 2, UniProt P0DTD1)	cell-free assay, inhibitor	–	–	IC50	440 µM
CC(C)(C)c1ccc(N(C(=O)C(F)Cl)C(C(=O)NCCc2cccc(F)c2)c2cncnc2)cc1 (stereo not drawn)	rep main protease	enzyme activity, inhibitor	–	–	IC50	0.25 µM
O=C(Oc1cncc(Cl)c1)c1cc2ccccc2[nH]1	rep main protease	enzyme activity, inhibitor	–	–	IC50	0.0247 µM

A few entries again:
Structure (SMILES)	target or system	assay	system	setting	endpoint	value
O=C(Cn1nnc2ccccc21)Nc1ccccc1-c1cccs1	rep main protease	enzyme activity, inhibitor	–	–	IC50	> 100 µM
CC(C)C[C@H](NC(=O)[C@H](CO[C@@H]1O[C@H](CO)[C@@H](O)[C@H](O)[C@H]1O)NC(=O)[C@H](CCCCN)NC(=O)[C@H](CC(C)C)NC(=O)C(C)(C)NC(=O)[C@H](CCCCN)NC(=O)[C@H](CCC(=O)O)NC(=O)[C@H](C)NC(=O)[C@H](CC(C)C)NC(=O)[C@H](CC(N)=O)NC(=O)[C@@H]1CCCN1C(=O)[C@H](CC(C)C)NC(=O)[C@H](Cc1ccccc1)NC(=O)CNC(=O)[C@H](NC(=O)[C@@H](N)Cc1ccc(O)cc1)[C@H](C)O)C(N)=O	OPRD1	ligand displacement, radioligand	–	pH 7.5, cell membranes	Ki	0.0036 µM
